Experimental data pooled from the literature.
A part holds a random share of what one study measured.
Sequence of UniProt P31152 (whole entry, looked up): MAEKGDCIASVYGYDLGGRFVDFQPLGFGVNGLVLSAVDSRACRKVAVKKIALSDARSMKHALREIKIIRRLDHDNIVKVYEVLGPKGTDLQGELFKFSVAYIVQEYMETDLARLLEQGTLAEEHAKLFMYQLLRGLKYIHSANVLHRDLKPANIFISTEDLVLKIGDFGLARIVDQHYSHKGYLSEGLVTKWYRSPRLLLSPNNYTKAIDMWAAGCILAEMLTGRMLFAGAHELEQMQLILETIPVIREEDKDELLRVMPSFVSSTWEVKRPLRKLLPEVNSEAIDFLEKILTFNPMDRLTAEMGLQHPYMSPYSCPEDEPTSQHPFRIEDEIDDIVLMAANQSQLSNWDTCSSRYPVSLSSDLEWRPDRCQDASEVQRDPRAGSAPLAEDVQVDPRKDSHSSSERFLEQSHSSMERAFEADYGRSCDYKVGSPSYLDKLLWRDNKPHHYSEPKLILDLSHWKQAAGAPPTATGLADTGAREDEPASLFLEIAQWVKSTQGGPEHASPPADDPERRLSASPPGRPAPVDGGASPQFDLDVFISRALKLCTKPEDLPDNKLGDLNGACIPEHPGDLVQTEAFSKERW
Sequence of UniProt P42336 (whole entry, unmodified, looked up): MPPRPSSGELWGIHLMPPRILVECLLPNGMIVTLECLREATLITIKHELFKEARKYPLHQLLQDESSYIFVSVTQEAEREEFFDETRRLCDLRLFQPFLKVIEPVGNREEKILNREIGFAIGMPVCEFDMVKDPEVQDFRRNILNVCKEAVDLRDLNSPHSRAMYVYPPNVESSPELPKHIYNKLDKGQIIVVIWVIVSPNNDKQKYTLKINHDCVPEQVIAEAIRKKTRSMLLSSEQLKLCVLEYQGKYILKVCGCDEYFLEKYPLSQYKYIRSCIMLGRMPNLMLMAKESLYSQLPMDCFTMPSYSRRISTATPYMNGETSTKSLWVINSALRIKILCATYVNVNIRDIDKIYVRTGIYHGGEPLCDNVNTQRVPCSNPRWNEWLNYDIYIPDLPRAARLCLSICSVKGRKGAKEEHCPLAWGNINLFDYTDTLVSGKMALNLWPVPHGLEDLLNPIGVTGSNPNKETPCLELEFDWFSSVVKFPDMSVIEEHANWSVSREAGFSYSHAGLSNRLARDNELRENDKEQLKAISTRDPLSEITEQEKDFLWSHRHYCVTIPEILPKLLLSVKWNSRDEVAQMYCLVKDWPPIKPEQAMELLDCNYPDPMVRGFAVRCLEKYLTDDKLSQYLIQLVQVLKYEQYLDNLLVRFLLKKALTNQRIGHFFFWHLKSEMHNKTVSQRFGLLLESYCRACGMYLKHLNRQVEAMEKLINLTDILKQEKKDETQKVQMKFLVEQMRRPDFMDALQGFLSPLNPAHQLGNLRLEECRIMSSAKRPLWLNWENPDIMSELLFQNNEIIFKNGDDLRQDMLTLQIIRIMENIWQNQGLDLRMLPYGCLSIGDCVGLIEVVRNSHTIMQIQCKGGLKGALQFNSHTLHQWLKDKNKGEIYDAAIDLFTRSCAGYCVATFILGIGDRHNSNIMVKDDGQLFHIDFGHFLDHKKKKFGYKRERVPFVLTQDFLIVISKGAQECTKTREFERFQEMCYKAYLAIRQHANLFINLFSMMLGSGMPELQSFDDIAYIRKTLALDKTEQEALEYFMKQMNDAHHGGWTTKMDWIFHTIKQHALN
Sequence of UniProt Q15831 (whole entry, looked up): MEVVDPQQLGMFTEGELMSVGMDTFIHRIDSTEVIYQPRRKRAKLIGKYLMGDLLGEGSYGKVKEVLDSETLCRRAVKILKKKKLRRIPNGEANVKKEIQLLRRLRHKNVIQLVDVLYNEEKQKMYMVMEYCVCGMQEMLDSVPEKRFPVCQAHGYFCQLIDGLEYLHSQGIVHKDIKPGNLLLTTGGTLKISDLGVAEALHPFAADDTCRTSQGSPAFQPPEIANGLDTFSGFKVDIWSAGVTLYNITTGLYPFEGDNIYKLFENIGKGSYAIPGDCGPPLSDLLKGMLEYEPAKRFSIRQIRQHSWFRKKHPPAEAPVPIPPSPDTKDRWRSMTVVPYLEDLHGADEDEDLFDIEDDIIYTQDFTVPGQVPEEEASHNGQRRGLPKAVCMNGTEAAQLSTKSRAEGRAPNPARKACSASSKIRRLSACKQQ
Sequence of UniProt Q9UHD2 (whole entry, looked up): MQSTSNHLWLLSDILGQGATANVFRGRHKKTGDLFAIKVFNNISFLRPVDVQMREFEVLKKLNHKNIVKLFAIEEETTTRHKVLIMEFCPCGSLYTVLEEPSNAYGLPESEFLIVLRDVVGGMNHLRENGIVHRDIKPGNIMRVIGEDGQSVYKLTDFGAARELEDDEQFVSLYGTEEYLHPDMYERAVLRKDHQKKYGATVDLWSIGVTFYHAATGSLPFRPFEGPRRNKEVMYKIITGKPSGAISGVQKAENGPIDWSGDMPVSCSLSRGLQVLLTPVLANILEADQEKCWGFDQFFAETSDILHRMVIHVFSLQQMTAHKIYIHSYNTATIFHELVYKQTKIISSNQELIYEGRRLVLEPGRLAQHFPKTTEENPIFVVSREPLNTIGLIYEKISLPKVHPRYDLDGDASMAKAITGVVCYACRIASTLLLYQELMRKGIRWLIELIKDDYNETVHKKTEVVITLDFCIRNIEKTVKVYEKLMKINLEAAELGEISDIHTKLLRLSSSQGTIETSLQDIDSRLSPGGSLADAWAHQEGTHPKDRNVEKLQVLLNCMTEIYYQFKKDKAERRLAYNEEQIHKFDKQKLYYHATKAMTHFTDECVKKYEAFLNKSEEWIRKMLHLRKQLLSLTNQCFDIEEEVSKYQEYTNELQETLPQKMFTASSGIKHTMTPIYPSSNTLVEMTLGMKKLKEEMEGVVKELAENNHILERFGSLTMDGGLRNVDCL
Sequence of UniProt Q9Y2U5 (whole entry, looked up): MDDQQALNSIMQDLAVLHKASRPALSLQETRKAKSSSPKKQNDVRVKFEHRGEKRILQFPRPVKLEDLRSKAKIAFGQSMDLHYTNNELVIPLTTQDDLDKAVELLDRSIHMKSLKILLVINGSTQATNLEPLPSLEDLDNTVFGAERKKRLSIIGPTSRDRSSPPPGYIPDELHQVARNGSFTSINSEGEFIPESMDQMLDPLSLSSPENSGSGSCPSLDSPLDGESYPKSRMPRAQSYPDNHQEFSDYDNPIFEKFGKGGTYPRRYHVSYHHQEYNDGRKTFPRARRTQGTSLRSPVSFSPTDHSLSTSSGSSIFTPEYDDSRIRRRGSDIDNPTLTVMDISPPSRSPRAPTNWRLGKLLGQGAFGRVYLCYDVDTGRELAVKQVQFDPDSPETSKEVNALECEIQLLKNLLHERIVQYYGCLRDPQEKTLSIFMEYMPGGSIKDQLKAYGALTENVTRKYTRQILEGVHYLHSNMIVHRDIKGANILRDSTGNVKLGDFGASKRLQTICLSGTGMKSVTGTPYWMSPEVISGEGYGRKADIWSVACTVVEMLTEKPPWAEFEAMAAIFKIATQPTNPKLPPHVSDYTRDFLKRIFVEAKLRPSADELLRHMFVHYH
Sequence of UniProt Q9BVS4 (whole entry, looked up): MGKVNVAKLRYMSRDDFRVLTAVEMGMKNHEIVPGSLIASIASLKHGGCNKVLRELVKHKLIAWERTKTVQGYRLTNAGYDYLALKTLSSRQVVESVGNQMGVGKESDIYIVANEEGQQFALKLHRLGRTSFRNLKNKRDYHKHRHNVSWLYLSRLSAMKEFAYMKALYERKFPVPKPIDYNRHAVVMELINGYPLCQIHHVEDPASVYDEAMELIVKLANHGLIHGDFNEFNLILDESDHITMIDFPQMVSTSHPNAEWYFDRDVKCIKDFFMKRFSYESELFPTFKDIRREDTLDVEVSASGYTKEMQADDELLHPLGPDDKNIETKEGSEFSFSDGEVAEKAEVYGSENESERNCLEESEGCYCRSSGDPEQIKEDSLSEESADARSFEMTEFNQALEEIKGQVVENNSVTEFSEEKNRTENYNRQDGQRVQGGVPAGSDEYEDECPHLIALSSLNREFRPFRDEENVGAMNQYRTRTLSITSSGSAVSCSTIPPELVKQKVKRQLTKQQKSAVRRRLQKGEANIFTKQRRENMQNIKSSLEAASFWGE
Sequence of UniProt Q8N752 (whole entry, looked up): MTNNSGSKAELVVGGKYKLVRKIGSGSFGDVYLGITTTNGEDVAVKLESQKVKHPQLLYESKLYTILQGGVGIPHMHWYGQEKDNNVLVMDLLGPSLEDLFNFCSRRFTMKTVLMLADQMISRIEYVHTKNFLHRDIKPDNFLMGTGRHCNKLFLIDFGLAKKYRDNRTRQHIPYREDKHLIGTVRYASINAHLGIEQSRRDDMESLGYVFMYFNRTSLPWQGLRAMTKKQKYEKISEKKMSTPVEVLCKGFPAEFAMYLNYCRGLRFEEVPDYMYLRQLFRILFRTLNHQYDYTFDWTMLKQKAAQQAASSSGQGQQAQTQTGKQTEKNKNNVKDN

Set 1 — method: RNA Bind-n-Seq; form: RNA; sample: in vitro; tested at: 365 nM; baseline: no-protein control; direction: higher = stronger binding; quantity: RBNS enrichment (R)
Target: RNA binding protein fox-1 homolog 2, RRM domain, GST-SBP tag (RBFOX2, Homo sapiens, UniProt O43251-10, residues 100-194)
Notes: natural RNA segment, single round, ends assumed
Construct (chain): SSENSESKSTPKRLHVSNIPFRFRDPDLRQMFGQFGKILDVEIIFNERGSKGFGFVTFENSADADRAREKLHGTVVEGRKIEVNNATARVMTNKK
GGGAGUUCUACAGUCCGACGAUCCAGCCAUGGGAGGCAGCCUGCAUACCUGGAAGCCAGCUGCACAGUGCUGUGGGGAAACAGAAGCGUUACAGACCGGGCCAGGCUGCCUGGCUGCUGCUCCCUCUGGGCUCUGGAAUUCUCGGGUGCCAA: 0.537
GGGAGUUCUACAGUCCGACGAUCAGUGAUGGCUCACUCAGACUGUCCUGGCAGCCAAAGUGACUUUCUGGAGCUCUGCUUGCCUGUCCCCACCUCGCUGGAAACCAUCUCGCCAUUAGCGCAACUGAUUUCCCUGGAAUUCUCGGGUGCCAA: 0.305
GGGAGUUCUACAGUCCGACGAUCUCUGCAGGGUGGGCCUGAUCCCAGAGUGGUGCUUACUGUGCUGACUGUGUACUUAUCUUCCCCAAGAGAAAAUGCUUCUUUUGAGCACACUGUACCUACCAUCUGCAUUGUGGAAUUCUCGGGUGCCAA: 0.376
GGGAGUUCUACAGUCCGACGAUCGGAGAGAGCUAGUGGCUUAAAAGGCCUGGGGUGGUGGGGAGAUCACACCACUCUCAACCAUACUCUGUUCCUGUGAGGCCCCCAUCACCACCUCCGUGCAGGGUCCUAGCUGGAAUUCUCGGGUGCCAA: 0.308
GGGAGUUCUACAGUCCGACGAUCAGAUAUUGUUCAGCUUGAGUUGGGUCAUGCCAAACAGUCAUUUAUUUGGUGGGUAGAAAUACAGUCAGGUGGUUAUAGAGCACAUACCUAGCAUAUGUGAAGCCAUGGGUUGGAAUUCUCGGGUGCCAA: 0.491
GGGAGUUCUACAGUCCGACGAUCCAGGAGAUUGAGACCAGCCUGACCGUCAUGGCGAAACCCCGUCUAUACUAAAAAUACAAAAAAUAGCCAGGCAUGGUGGCGCACGCCUGUGGUCCCAGCUACUUGGGAGGUGGAAUUCUCGGGUGCCAA: 1.05
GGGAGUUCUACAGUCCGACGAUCUGAACAUUCUAAGUUGUACUGUUCUUAACAGACAUGAAAGAUCUCAGGUAAAUAAAAAAAAUUUUAAAUAUAGAUCACAAAAUUAAAAAGUAUGUGAAGAAAUAUGAUGGUGGAAUUCUCGGGUGCCAA: 0.589
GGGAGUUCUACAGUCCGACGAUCGGUUGACCUUCCUCCAUCCCCUGGUCCUUCCCUUCCCUUCCCGAGGCACAGAGAGACAGGGCAGGAUCCACGUGCCCAUUGUGGAGGCAGAGAAAAGAGAAAGUGUUUUAUGGAAUUCUCGGGUGCCAA: 0.632

Set 2 — method: universal PBM; form: double-stranded DNA, one strand shown; sample: in vitro; tested at: not given; direction: higher = stronger binding; quantity: E-score
Target: Sal-like protein 4, full length isoform B (SALL4, Homo sapiens, UniProt Q9UJQ4-2, residues 1-616)
Notes: 8-mer, flanks averaged, mean of replicates
Residues (chain): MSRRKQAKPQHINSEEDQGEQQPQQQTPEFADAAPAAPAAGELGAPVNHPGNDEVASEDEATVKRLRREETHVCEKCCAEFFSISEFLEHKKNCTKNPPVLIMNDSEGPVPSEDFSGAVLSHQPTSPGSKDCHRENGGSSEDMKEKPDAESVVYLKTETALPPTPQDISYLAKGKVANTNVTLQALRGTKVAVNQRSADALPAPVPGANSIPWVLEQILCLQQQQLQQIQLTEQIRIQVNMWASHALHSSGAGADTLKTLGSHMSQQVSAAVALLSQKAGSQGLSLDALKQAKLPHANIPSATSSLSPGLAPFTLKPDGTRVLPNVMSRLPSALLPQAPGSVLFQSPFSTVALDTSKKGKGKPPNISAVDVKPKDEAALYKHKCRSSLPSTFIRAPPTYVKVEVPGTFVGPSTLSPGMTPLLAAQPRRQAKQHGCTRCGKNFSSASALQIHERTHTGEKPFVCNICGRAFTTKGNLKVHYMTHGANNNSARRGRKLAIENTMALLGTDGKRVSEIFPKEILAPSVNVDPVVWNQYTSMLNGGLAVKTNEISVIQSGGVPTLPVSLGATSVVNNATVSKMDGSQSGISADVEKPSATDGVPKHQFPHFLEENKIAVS
AACGGATT: 0.2
ACGTAGCG: -0.134
ATTGGCCG: -0.0739
AAAGACGT: 0.0473
AAGCGCCT: -0.183
CGTGACCA: -0.106
GAGAACAC: -0.145
GGTTTAAA: 0.187

Set 3 — observed: cell-free assay; method: competition with immobilised ligand; tested at: 0.1 µM; quantity: remaining binding
Structure (SMILES): Cn1nc(C(=O)NCc2ccc(C(=O)O)cc2)cc1-c1ccc2[nH]ccc2c1
Mitogen-activated protein kinase 9 (MAPK9, Homo sapiens, UniProt P45984): 60%
Serine/threonine-protein kinase STK11 (STK11, Homo sapiens, UniProt Q15831): 100%
Phosphatidylinositol 4,5-bisphosphate 3-kinase catalytic subunit alpha isoform (PIK3CA, Homo sapiens, UniProt P42336, C420R): 84%
Mitogen-activated protein kinase kinase kinase 12 (MAP3K12, Homo sapiens, UniProt Q12852): 100%
Epidermal growth factor receptor (EGFR, Homo sapiens, UniProt P00533, G719C): 76%
Serine/threonine-protein kinase TBK1 (TBK1, Homo sapiens, UniProt Q9UHD2): 77%
Mitogen-activated protein kinase kinase kinase 2 (MAP3K2, Homo sapiens, UniProt Q9Y2U5): 75%
STE20/SPS1-related proline-alanine-rich protein kinase (STK39, Homo sapiens, UniProt Q9UEW8): 90%
Ribosomal protein S6 kinase alpha-3, C-terminal kinase domain (RPS6KA3, Homo sapiens, UniProt P51812): 70%
Serine/threonine-protein kinase RIO2 (RIOK2, Homo sapiens, UniProt Q9BVS4): 100%
Mitogen-activated protein kinase 4 (MAPK4, Homo sapiens, UniProt P31152): 89%
Casein kinase I isoform alpha-like (CSNK1A1L, Homo sapiens, UniProt Q8N752): 94%

Set 4 — observed: enzyme activity; mode: inhibitor; tested at: 0.5 µM; baseline: control; quantity: remaining activity
Target: RAC-beta serine/threonine-protein kinase (AKT2, Homo sapiens, UniProt P31751)
Sequence of UniProt P31751 (whole entry, looked up): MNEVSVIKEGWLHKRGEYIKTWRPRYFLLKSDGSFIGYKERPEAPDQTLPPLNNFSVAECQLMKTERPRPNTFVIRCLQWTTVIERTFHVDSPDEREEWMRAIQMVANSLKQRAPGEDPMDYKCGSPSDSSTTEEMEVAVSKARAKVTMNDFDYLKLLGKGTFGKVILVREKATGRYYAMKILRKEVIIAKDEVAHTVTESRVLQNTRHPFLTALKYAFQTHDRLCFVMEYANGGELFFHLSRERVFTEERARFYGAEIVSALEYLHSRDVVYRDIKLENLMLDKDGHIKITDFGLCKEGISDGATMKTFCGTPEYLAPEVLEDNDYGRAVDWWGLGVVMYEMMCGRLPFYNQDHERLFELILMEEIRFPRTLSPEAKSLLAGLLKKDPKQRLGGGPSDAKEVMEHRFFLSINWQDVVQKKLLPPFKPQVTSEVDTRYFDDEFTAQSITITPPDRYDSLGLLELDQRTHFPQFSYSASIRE
Cn1c2ccccc2c2c3c(c4c5ccccc5n(CCC#N)c4c21)CNC3=O: 110%
Cc1cccc(-c2[nH]c(C(C)(C)C)nc2-c2ccc3c(c2)OCO3)n1: 80.1%
O=C1NC(=O)C(c2cn(CCCO)c3ncccc23)=C1c1cnccn1: 114%
CO[C@H]1C[C@@H]2CC[C@@H](C)[C@@](O)(O2)C(=O)C(=O)N2CCCC[C@H]2C(=O)O[C@H]([C@H](C)C[C@@H]2CC[C@@H](O)[C@H](OC)C2)CC(=O)[C@H](C)/C=C(\C)[C@@H](O)[C@@H](OC)C(=O)[C@H](C)C[C@H](C)/C=C/C=C/C=C/1C: 96.1%
C#Cc1cccc(Nc2ncnc3cc(OCCOC)c(OCCOC)cc23)c1: 108%
O=c1c2ccccc2[nH]c(=S)n1CCN1CCC(=C(c2ccc(F)cc2)c2ccc(F)cc2)CC1: 101%
CCOC(=O)c1c(C)[nH]c(/C=C2\C(=O)Nc3ccccc32)c1C: 87.6%
O=S(=O)(c1cccc2cnccc12)N1CCCNCC1: 115%
N#CC(C#N)=C(N)/C(C#N)=C/c1ccc(O)cc1: 92.8%
Nc1ncnc2n[nH]c(Nc3ccc(F)cc3)c12: 108%
Nc1[nH]nc2nc3ccccc3nc12: 90.1%
OCC(O)CCON=C1C(c2c(O)[nH]c3ccccc23)=Nc2ccccc21 (stereo not shown): 90.1%

Excerpt of the above (set 3):
Phosphatidylinositol 4,5-bisphosphate 3-kinase catalytic subunit alpha isoform (PIK3CA, Homo sapiens, UniProt P42336, C420R): 84%
Mitogen-activated protein kinase kinase kinase 12 (MAP3K12, Homo sapiens, UniProt Q12852): 100%
Epidermal growth factor receptor (EGFR, Homo sapiens, UniProt P00533, G719C): 76%
Serine/threonine-protein kinase TBK1 (TBK1, Homo sapiens, UniProt Q9UHD2): 77%
